# Experimental data collected from several papers.
# Each line is one published result; not all experiments were run side by side. Numbers after ± are the reported error.
# POLB I260M: DNA polymerase beta (POLB, Homo sapiens, UniProt P06746, I260M)
# SCTR: Secretin receptor (SCTR, Homo sapiens, UniProt P47872)
# T1: ssRNA FMR1 5' UTR CGG repeat (Homo sapiens); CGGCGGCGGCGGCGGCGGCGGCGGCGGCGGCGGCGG
Compound,target,test,system,conditions,scale,quantity,result
O=C(Nc1cccnc1)c1ccc(-c2ccc(Cl)cc2)o1,"Nuclear receptor subfamily 4 group A member 2, ligand binding domain (Homo sapiens, UniProt P43354)","reporter gene, agonist, Gal4-Nurr1 hybrid reporter",HEK-293T,"3 µM, crude library product",relative to: vehicle (0.1% DMSO),activation,≤ 1.5 fold
Nc1nc2c(ncn2C2CC(O)C(COP(=O)(O)OP(=O)(O)C(Br)P(=O)(O)O)O2)c(=O)[nH]1 (mixture of isomers),POLB I260M,"nucleotide incorporation, substrate, single turnover kinetics",,dG misincorporation opposite A,,kpol/Kd,8.8 ± 3.8 M⁻¹ s⁻¹
CCC1(O)CCCN(C(=O)c2ccc(-c3ccc(F)c(C(N)=O)c3)cc2)C1 (centres unmarked),"DNA dC->dU-editing enzyme APOBEC-3A (Homo sapiens, UniProt P31941)","binding, 1H CPMG NMR",,,,signal attenuation,28.5 ± 3.8%
COc1cc2c(cc1OC)CN(CCCCNC(=O)c1cc([125I])cc(OC)c1OCCF)CC2,"TMEM97 (Homo sapiens, UniProt Q5BJF2)",radioligand,"HeLa overexpressing PGRMC1, cell membranes",3.5 nM,relative to: vector-transfected cells,radioligand binding increase,60%
CCOC(=O)CNc1nc(-c2ccccc2)cc(C(F)(F)F)n1,SCTR,"increase of tracer binding, TR-FRET",HEK293 membranes,added: Fluo-Sec 6 nM,,Emax,167 ± 13%
CCCN(CC(=O)N(CCC)CC(=O)N(CCC)CC(=O)N(CCC)CC(=O)N(CCC)CC(=O)N(CCC)CC(=O)N(CCC)CC(=O)N(CC(N)=O)Cc1cn(CCCNC(=O)CCCOc2cccc(-c3nc4ccc(-c5nc6ccc(N7CCN(C)CC7)cc6[nH]5)cc4[nH]3)c2)nn1)C(=O)CNCc1cn(CCCNC(=O)CCCOc2cccc(-c3nc4ccc(-c5nc6ccc(N7CCN(C)CC7)cc6[nH]5)cc4[nH]3)c2)nn1,"T1, ssRNA FMR1 5' UTR CGG repeat (Homo sapiens)","protein displacement, competitor, TR-FRET",,,,IC50,35 µM
S=C(Nc1ccc(Cl)cc1)Nc1cccc2[nH]ccc12,"MAPT (Homo sapiens, UniProt P10636)","fibril formation, ThT fluorescence",,"100 µM, added: tau 10 µM",,inhibition,67%
Nc1nc2c(ncn2C2CC(O)C(COP(=O)(O)OP(=O)(O)C(Cl)P(=O)(O)O)O2)c(=O)[nH]1 (mixture of isomers),POLB I260M,"nucleotide incorporation, substrate, single turnover kinetics",,dG misincorporation opposite A,,kpol/Kd,8.5 ± 4.1 M⁻¹ s⁻¹
COC1CCC(N(C(=O)C2CCC(C)CC2)c2cc(C3=CCCCC3)sc2C(=O)O)CC1 (centres unmarked),"Probable UDP-N-acetylglucosamine--peptide N-acetylglucosaminyltransferase SPINDLY, 3 TPR truncation (SPY, Arabidopsis thaliana, UniProt Q96301)",inhibitor,,"3 to 100 µM, 90 min, added: GDP-fucose 50 µM",,O-fucosylation,inhibited
COc1ccc(-c2cc(C(F)(F)F)nc(S(=O)(=O)CCC(=O)Nc3ccc(C)cc3)n2)cc1,"WRN (Homo sapiens, UniProt Q14191)",intact protein mass spectrometry,,"overnight, 4 °C, relative peak abundance, added: 10-fold compound excess",,dialkylated protein,< 10%
CNc1ccccc1C(=O)O[C@H]1C[C@H](n2cnc3c(N)ncnc32)O[C@@H]1COP(=O)(O)OP(=O)(O)O,"Unconventional myosin-Va (Gallus gallus, UniProt Q02440, D297C/G292C/I296C/S293C/V295G)",van't Hoff,,"concentration not given, added: EDTA",,binding entropy,17.1 ± 7.4 cal/(mol·K)
COc1ccc(-c2cc(C(F)(F)F)nc(NCc3ccc(Cl)cc3)n2)cc1OC,SCTR,"affinity cooperativity, allosteric modulator",cells overexpressing SCTR,added: secretin(3-27),,cooperativity factor alpha,5 to 7
CC(C)(C)CCN1C[C@@H]2[C@@H](CNC(=O)c3cc(Cl)cc(Cl)c3)[C@@H]2C1.Cl,"Voltage-dependent L-type calcium channel subunit alpha-1F (Homo sapiens, UniProt O60840)","calcium current, whole-cell patch clamp",HEK-293T cells,"50 nM, holding potential -50 mV, added: β2 and α2δ subunits",,Gmax,0.037 ± 0.0066 nS/pF
CC1(C)C(/C=C/C2=C(Oc3ccc(CCC(=O)N[C@@H](CSC4CC(=O)N(CCNC(=O)CN5CCN(CC(=O)O)CCN(CC(=O)O)CCN(CC(=O)O)CC5)C4=O)C(=O)NCCCC[C@@H]4NC(=O)[C@@H](Cc5ccc(O)cc5)NC(=O)[C@H](CC(=O)O)NC(=O)CNC(=O)[C@H](CCCNC(=N)N)NC4=O)cc3)C(=C/C=C3/N(CCC[N+](C)(C)C)c4ccc(S(=O)(=O)O)cc4C3(C)C)/CCC2)=[N+](CCC[N+](C)(C)C)c2ccc(S(=O)(=O)O)cc21 (some centres unmarked) [copper-64 labelled],integrin αvβ3,"dynamic PET, Logan plot","female athymic nude mouse, MDA-MB-435 xenograft","dose not given, 60 min, unit not given",relative to: muscle,binding potential,1.75 ± 0.026
